Published values collected from several papers.
Compare with care: the assays were run in different laboratories. Numbers after ± are the reported error.
VIM-2: Metallo-beta-lactamase VIM-2 (VIM-2, Escherichia coli, UniProt Q5U7L7)
cofactor-independent phosphoglycerate mutase W431C: cofactor-independent phosphoglycerate mutase (Metamycoplasma orale, UniProt A0A448ZXM1, W431C)
Chain of UniProt O43148 (whole entry, looked up): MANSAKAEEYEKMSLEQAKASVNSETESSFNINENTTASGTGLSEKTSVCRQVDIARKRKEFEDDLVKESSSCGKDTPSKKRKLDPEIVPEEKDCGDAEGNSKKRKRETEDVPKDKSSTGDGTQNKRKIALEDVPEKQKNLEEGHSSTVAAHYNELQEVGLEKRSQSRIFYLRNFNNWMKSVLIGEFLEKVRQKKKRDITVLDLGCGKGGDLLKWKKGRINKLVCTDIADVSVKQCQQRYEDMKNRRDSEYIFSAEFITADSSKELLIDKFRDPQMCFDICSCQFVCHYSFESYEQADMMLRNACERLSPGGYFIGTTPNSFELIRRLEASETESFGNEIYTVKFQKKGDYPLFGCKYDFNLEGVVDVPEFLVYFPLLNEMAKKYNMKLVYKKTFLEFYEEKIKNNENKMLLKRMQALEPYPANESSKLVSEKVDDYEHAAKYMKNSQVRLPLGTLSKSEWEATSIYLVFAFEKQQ
Chain of UniProt Q04828 (whole entry, looked up): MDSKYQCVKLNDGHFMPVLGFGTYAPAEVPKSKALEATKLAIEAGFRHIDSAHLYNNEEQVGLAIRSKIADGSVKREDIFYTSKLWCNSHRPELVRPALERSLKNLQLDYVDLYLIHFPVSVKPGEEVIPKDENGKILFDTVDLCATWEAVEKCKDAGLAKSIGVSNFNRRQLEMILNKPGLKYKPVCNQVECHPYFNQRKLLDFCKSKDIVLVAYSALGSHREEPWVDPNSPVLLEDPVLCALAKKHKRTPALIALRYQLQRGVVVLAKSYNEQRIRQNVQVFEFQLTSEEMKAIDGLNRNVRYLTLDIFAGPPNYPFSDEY
Chain of UniProt P05804 (whole entry, looked up): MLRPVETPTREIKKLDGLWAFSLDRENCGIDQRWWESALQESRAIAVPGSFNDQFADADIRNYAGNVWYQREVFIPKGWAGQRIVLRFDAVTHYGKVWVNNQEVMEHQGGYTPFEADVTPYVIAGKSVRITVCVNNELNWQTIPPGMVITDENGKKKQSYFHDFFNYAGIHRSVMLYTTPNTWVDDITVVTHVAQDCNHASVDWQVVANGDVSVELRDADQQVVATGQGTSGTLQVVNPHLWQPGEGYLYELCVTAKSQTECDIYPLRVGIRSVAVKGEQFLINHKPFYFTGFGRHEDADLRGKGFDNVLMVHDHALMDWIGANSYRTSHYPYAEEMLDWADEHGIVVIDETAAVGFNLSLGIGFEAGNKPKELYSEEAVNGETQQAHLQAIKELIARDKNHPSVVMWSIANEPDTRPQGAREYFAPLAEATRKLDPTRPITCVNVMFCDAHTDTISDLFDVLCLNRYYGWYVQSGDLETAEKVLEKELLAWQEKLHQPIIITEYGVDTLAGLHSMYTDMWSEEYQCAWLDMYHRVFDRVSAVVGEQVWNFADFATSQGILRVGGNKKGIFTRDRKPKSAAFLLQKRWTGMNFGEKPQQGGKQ
Chain of UniProt Q13393 (whole entry, looked up): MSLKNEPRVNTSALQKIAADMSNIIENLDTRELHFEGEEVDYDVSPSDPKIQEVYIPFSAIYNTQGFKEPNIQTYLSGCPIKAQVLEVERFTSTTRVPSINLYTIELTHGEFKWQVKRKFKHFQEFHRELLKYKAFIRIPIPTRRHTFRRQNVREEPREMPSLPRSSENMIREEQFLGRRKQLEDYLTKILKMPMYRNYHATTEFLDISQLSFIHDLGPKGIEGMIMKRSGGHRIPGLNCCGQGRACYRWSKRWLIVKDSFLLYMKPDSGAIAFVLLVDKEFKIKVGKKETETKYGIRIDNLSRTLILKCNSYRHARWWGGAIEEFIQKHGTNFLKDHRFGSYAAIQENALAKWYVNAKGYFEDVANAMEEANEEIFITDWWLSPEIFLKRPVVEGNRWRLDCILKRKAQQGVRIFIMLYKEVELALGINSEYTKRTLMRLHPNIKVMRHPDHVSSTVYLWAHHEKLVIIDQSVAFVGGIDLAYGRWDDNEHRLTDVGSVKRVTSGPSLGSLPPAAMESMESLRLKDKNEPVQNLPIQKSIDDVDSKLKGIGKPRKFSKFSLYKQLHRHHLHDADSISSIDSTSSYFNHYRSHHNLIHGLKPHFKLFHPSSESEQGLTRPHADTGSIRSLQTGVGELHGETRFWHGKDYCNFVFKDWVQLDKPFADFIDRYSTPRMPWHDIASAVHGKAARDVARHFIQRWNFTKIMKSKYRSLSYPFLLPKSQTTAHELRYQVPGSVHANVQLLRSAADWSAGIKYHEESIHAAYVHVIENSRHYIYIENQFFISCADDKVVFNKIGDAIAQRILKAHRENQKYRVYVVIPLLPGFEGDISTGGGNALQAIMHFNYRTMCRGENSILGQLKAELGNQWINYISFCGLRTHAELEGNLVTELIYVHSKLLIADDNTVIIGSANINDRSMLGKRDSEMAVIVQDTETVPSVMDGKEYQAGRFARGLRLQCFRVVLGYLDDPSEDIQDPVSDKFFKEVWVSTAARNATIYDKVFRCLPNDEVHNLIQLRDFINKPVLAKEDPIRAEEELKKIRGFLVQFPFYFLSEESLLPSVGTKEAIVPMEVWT
Chain of UniProt P30550 (whole entry, looked up): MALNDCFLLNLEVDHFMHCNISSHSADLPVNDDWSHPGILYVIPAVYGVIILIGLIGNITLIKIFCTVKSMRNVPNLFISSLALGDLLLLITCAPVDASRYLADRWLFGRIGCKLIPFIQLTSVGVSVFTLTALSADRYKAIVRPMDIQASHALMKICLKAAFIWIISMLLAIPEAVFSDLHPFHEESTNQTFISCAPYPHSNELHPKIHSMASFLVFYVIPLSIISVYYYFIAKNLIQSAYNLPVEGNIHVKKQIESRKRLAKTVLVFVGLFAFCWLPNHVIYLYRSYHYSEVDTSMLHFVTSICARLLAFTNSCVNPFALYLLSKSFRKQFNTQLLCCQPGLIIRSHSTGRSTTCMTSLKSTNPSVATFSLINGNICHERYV
Chain of UniProt O14744 (whole entry, looked up): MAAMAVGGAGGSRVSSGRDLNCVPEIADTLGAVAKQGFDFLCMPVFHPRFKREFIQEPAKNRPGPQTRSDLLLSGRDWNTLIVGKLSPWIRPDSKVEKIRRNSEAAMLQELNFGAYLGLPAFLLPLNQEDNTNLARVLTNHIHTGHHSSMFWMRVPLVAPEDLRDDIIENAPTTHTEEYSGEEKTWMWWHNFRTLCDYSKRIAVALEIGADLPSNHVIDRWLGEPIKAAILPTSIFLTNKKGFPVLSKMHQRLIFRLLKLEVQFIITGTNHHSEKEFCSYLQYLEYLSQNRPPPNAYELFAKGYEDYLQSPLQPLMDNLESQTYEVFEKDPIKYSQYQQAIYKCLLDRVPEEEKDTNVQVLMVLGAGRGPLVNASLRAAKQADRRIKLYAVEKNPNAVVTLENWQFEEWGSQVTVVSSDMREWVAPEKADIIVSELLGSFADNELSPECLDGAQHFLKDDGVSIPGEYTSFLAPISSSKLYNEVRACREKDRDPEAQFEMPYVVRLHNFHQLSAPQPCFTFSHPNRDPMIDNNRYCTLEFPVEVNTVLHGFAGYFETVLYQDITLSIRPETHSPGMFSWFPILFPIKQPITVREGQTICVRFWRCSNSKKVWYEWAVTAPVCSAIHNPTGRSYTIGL
Chain of UniProt P42336 (whole entry, looked up): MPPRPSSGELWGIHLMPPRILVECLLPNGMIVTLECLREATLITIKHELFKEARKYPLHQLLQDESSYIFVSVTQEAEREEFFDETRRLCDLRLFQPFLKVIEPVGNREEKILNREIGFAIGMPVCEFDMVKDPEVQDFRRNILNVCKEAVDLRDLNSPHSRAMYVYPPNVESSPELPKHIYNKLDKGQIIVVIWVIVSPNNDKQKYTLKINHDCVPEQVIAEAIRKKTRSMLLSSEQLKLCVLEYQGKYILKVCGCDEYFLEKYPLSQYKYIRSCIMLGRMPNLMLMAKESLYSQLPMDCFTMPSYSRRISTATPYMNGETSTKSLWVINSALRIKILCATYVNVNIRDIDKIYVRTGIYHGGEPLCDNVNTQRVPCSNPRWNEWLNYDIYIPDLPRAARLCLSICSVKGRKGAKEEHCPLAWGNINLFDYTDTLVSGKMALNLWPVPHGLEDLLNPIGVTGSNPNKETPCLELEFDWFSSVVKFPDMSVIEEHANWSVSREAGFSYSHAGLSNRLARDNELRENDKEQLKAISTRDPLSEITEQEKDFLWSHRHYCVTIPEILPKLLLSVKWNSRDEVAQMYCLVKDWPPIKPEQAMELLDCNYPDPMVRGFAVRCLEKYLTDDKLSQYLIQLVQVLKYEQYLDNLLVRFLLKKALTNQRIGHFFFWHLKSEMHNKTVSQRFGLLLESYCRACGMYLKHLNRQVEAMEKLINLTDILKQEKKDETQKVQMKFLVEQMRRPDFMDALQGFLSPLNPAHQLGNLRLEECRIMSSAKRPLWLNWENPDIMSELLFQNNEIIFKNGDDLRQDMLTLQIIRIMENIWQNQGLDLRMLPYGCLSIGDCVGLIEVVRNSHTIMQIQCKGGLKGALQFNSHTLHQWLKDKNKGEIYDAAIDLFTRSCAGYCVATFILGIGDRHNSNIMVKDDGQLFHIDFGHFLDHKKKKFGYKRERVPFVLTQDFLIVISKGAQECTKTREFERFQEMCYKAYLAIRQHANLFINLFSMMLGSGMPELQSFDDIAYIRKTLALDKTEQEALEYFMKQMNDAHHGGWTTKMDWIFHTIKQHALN
Chain of UniProt P41145 (whole entry, looked up): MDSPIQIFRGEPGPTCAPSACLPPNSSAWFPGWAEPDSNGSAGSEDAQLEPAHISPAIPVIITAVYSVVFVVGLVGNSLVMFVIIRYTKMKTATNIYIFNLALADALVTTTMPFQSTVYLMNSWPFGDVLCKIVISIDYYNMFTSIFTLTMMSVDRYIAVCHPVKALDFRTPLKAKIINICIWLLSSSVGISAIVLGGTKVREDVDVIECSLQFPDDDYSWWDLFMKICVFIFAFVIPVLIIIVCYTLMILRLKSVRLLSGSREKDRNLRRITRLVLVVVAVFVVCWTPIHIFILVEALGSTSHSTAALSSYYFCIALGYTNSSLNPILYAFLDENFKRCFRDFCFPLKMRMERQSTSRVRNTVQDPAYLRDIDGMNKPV

| SMILES | target or system | test | test system | conditions | measurement | result |
| --- | --- | --- | --- | --- | --- | --- |
| CC[C@H](C)[C@H](N)C(=O)N[C@@H](CC(N)=O)C(=O)N[C@H]1CSC(=O)[C@H](CC(C)C)NC(=O)[C@H](CC(C)C)NC(=O)[C@H](Cc2ccccc2)NC(=O)[C@H](CC(N)=O)NC1=O | Accessory gene regulator protein C (Staphylococcus aureus, UniProt Q309Z2) | – | – | – | IC50 | 0.294 nM |
| CC[C@H](C)[C@H](NC(=O)[C@@H](N)Cc1ccc(O)cc1)C(=O)N[C@@H](Cc1ccccc1)C(=O)N[C@@H](CC(N)=O)C(=O)N[C@@H](CC(C)C)C(=O)O | OPRK1 (Homo sapiens, UniProt P41145) | [3H]EKC binding displacement, whole-cell radioligand binding | PC-3 | added: DADLE | IC50 | > 1000 nM |
| CCCCn1nnc(-c2cccc(NC(=O)[C@H](C)CS)c2)n1 | VIM-2 | enzyme activity, inhibitor, fluorescence | – | with preincubation | IC50 | 25.1 nM |
| CC[C@H](C)[C@H](N)C(=O)N[C@@H](CO)C(=O)N[C@@H](CCC(N)=O)C(=O)N[C@H](C(=O)N[C@@H](CC(N)=O)C(=O)N[C@@H](CCC(=O)O)C(=O)N[C@@H](CCCCN)C(=O)N[C@H](C(=O)N[C@@H](CC(N)=O)C(=O)N[C@@H](CCC(N)=O)C(=O)N[C@@H](CO)C(=O)N[C@@H](CC(C)C)C(=O)N[C@@H](C)C(=O)N[C@@H](Cc1ccccc1)C(=O)N[C@H](C(=O)N[C@@H](CCCNC(=N)N)C(=O)N[C@@H](CCCCN)C(=O)N[C@@H](CO)C(=O)N[C@@H](CC(=O)O)C(=O)N[C@@H](CCC(=O)O)C(=O)N(CCOC)CC(=O)N(CCOC)CC(=O)N(CCOC)CC(=O)N(CCOC)CC(=O)N(CCOC)CC(=O)N(CCOC)CC(=O)N(CCOC)CC(=O)N(CCOC)CC(=O)N(CCOC)CC(=O)N(CCOC)CC(N)=O)[C@@H](C)CC)[C@@H](C)CC)C(C)C | hRSV fusion protein 5-helix bundle | binding, fluorescence polarization | – | added: Fl-C35 tracer 5 nM | IC50 | > 200000 nM |
| C[C@H]1CN(c2nnnc3c2sc2nc(N4CCOCC4)c4c(c23)CCCC4)CCN1 | Beta-glucuronidase (uidA, Escherichia coli, UniProt P05804) | enzyme activity, inhibitor | – | – | IC50 | > 100000 nM |
| CC(C)[C@@H]1NC(=O)[C@H](CCCNC(=N)N)NC(=O)[C@H](Cc2ccc(O)cc2)NC(=O)[C@H](CO)NC(=O)[C@H](Cc2ccc(O)cc2)N(C)C(=O)[C@H](CC(N)=O)NC(=O)CNC(=O)[C@H](Cc2ccc(O)cc2)N(C)C(=O)[C@H](Cc2ccccc2)N(C)C(=O)[C@H](CC(=O)O)NC(=O)[C@H](Cc2ccc(O)cc2)NC(=O)[C@H](Cc2ccccc2)N(C)C(=O)[C@H](Cc2ccc(O)cc2)N(C)C(=O)[C@H](Cc2ccc(O)cc2)NC(=O)CSC[C@@H](C(N)=O)NC(=O)[C@@H]2CCCN2C1=O | cofactor-independent phosphoglycerate mutase W431C | biochemical | Mycoplasma orale | – | AC50 | 9.33 nM |
| CCCNC(=O)[C@H](CC(C)C)NC(=O)[C@H](Cc1c[nH]cn1)NC(=O)CNC(=O)[C@@H](NC(=O)[C@H](C)NC(=O)[C@H](Cc1c[nH]c2ccccc12)NC(=O)[C@H](CCC(N)=O)NC(=O)[C@@H](Cc1ccccc1)NC(=O)CCCCCNC(=O)CN1CCN(CC(=O)O)CCN(CC(=O)O)CCN(CC(=O)O)CC1)C(C)C | GRPR (Homo sapiens, UniProt P30550) | binding | – | – | IC50 | 1.36 ± 0.09 nM |
| N#Cc1cn([C@@H]2O[C@H](CSCC[C@H](N)C(=O)O)[C@@H](O)[C@H]2O)c2ncnc(N)c12 | PRMT5 (Homo sapiens, UniProt O14744) | enzyme activity, inhibitor, radiometric | – | – | IC50 | 9000 nM |
| CC(C)[C@H]1NC(=O)C[C@H]2/C=C/CCSSC[C@@H](NC1=O)C(=O)N[C@H](C)C(=O)NCC(=O)O2 | Phosphatidylinositol 4,5-bisphosphate 3-kinase catalytic subunit alpha isoform, with p85 (PIK3CA, Homo sapiens, UniProt P42336) | enzyme activity, inhibitor, mobility shift | – | – | IC50 | > 100000 nM |
| NC(=O)CN(CC(=O)O)CC(=O)O | VIM-2 | enzyme activity, inhibitor, fluorescence | – | – | IC50 | ~25000 nM |
| C[C@]12CC[C@@H]3c4cc(Cl)c(O)c(Cl)c4CC[C@H]3[C@@H]1CCC2=O | AKR1C1 (Homo sapiens, UniProt Q04828) | enzyme activity, inhibitor, absorbance | – | pH 9 | IC50 | 1600 nM |
| CN(Cc1ccc(C(C)(C)C)cc1)Cc1cccc2ccccc12 | RNMT (Homo sapiens, UniProt O43148) | enzyme activity, inhibitor | – | – | IC50 | 1280 nM |
| O=C(NCCN1CCC2(CC1)C(=O)NCN2Cc1cccnc1)c1cc2ccccc2[nH]1 | Phospholipase D1 (Homo sapiens, UniProt Q13393) | enzyme activity, inhibitor | – | – | IC50 | 3600 nM |
| N=C(N)NCCC[C@@H]1NC(=O)[C@@H](Cc2ccc(O)cc2)NC(=O)CSC[C@@H](C(=O)N2CCC[C@H]2C(=O)N[C@@H](CCCCN)C(=O)N[C@@H](CS)C(N)=O)NC(=O)[C@H](CCC(=O)O)NC(=O)[C@H](Cc2ccc(O)cc2)NC(=O)[C@H](CCCCN)NC(=O)[C@H](Cc2ccc(O)cc2)NC(=O)[C@H](Cc2ccc(O)cc2)NC(=O)[C@H](CCC(=O)O)NC(=O)[C@H](Cc2ccc(O)cc2)NC1=O | cofactor-independent phosphoglycerate mutase W431C | biochemical | Mycoplasma orale | – | AC50 | 24500 nM |
| CN[C@](C)(C[18F])C(=O)O | DU-145 tumour model | – | host not given, blood | 2 h, tumour-bearing | tracer uptake | 0.7 %ID/g |
| CCn1c2ccccc2c2cc(NC(=O)CCc3nc(-c4ccccc4F)no3)ccc21 | NPY5R (Homo sapiens, UniProt Q15761) | ligand displacement, radioligand | – | – | IC50 | 190 nM |

Repeated from above:
| SMILES | target or system | test | test system | conditions | measurement | result |
| --- | --- | --- | --- | --- | --- | --- |
| CC(C)[C@@H]1NC(=O)[C@H](CCCNC(=N)N)NC(=O)[C@H](Cc2ccc(O)cc2)NC(=O)[C@H](CO)NC(=O)[C@H](Cc2ccc(O)cc2)N(C)C(=O)[C@H](CC(N)=O)NC(=O)CNC(=O)[C@H](Cc2ccc(O)cc2)N(C)C(=O)[C@H](Cc2ccccc2)N(C)C(=O)[C@H](CC(=O)O)NC(=O)[C@H](Cc2ccc(O)cc2)NC(=O)[C@H](Cc2ccccc2)N(C)C(=O)[C@H](Cc2ccc(O)cc2)N(C)C(=O)[C@H](Cc2ccc(O)cc2)NC(=O)CSC[C@@H](C(N)=O)NC(=O)[C@@H]2CCCN2C1=O | cofactor-independent phosphoglycerate mutase W431C | biochemical | Mycoplasma orale | – | AC50 | 9.33 nM |
| CCCCn1nnc(-c2cccc(NC(=O)[C@H](C)CS)c2)n1 | VIM-2 | enzyme activity, inhibitor, fluorescence | – | with preincubation | IC50 | 25.1 nM |
